Measured values pooled from the literature.
Lines come from different studies, so protocols differ. ± gives the spread as reported.

Substance	organism	assay	test system	conditions	MIC
N=C(N)NCCC[C@H](NC(=O)[C@H](Cc1c[nH]cn1)NC(=O)[C@@H]1CCCN1C(=O)[C@H](CS)NC(=O)[C@@H](N)Cc1ccc(O)cc1)C(=O)N[C@@H](CS)C(=O)O	Streptococcus pyogenes	broth microdilution	MTCC 442	37 °C	55 µg/mL
TFFRLFNRSFTGRRRRSVQWCA	Streptococcus mutans	broth microdilution	peptide, GS-5	24 h, 37 °C, planktonic, anaerobic	12.4 ± 4.22 µg/mL
CCCCCCCCCCCCCC(=O)N/N=C/c1ccccc1Cl	Aspergillus niger	microbial growth, broth dilution		7 days	75.9 µM
CC[C@H](C)[C@H](NC(=O)[C@@H]1CCCN1C(=O)[C@H](CCCCN)NC(=O)[C@@H]1CCCN1C(=O)[C@@H]1CCCN1C(=O)[C@@H](NC(=O)[C@@H]1CCCN1C(=O)[C@H](CCCNC(=N)N)NC(=O)[C@@H]1CCCN1C(=O)[C@H](CCCNC(=N)N)NC(=O)[C@H](Cc1ccc(O)cc1)NC(=O)[C@H](CO)NC(=O)CNC(=O)[C@H](CCCCN)NC(=O)[C@H](CC(=O)O)NC(=O)[C@@H](N)C(C)C)[C@@H](C)O)C(=O)N[C@@H](Cc1ccc(O)cc1)C(=O)N[C@@H](CC(N)=O)C(=O)N[C@@H](CCCNC(=N)N)C(=O)N[C@@H](CC(N)=O)C(=O)O	Salmonella enterica		serovar Newport	18 h, 37 °C, 12.5% Mueller-Hinton broth	0.037 ± 0.008 µM
Cc1ccccc1OCc1n(CC(=O)OC2CC(C)CCC2C(C)C)c2ccccc2[n+]1C (centres unmarked)	Mycolicibacterium smegmatis	microbial growth			5 µM
Cc1ccc(C(=O)N/N=C/c2ccccc2Cl)cc1	Staphylococcus aureus, Bacillus subtilis, Escherichia coli	bacterial growth		24 h	45.7 µM
CC(C)C[C@H](NC(=O)[C@H](C)NC(=O)[C@@H](N)CO)C(=O)N[C@@H](Cc1c[nH]cn1)C(=O)N[C@@H](CC(C)C)C(=O)N[C@H](C(=O)N[C@@H](CC(C)C)C(=O)N[C@@H](CCCNC(=N)N)C(=O)N[C@@H](CC(C)C)C(=O)N[C@@H](CCCNC(=N)N)C(=O)NCC(=O)NCC(=O)O)C(C)C	Mycolicibacterium smegmatis		mc2 155	37 °C, ≥90% viability decrease	50 µM
O=CC(/N=N/c1ccc(Cl)cc1)=C(\O)c1cc2ccccc2o1	Bacillus cereus	microbial growth, broth dilution	UW85	18 h	256 µg/mL
Cc1cccc(C(=O)N/N=C/c2ccccc2Cl)c1	Aspergillus niger	microbial growth, broth dilution		7 days	30.9 µM
magainin 2	Streptococcus mutans	serial dilution	ATCC 25175	24 h, 37 °C	62.4 ± 2.8 µg/mL
C/C=C/C=C/C(=O)N/N=C/c1ccccc1	Aspergillus niger	microbial growth, broth dilution		7 days	28.8 µM
NCC[C@H](O)C(=O)N[C@@H]1C[C@H](N)[C@@H](O[C@H]2O[C@H](CN)[C@@H](O)[C@H](O)[C@H]2O)[C@H](O)[C@H]1O[C@H]1O[C@H](CO)[C@@H](O)[C@H](N)[C@H]1O	Mycobacteroides abscessus		ATCC 19977 ∆whiB7 ∆tap	120 h	0.25 µg/mL
Cc1ncc([N+](=O)[O-])n1CCO	Bacteroides fragilis		nim-negative strains incl. ATCC 25285		8 to 256 µg/mL
CC(C)C[C@H](NC(=O)[C@H](Cc1ccccc1)NC(=O)[C@H](CCCNC(=N)N)NC(=O)[C@H](CCCCN)NC(=O)[C@H](Cc1c[nH]c2ccccc12)NC(=O)[C@@H](N)CCCNC(=N)N)C(=O)N[C@@H](CCCNC(=N)N)C(=O)N[C@@H](CC(N)=O)C(=O)N[C@@H](Cc1c[nH]c2ccccc12)C(=O)N[C@H](C(N)=O)C(C)C	Staphylococcus epidermidis	broth microdilution	1457, Mueller-Hinton broth	overnight, 37 °C	> 32 µM
CN[C@H](CC(C)C)C(=O)N[C@H]1C(=O)N[C@@H](CC(N)=O)C(=O)N[C@H]2C(=O)N[C@H]3C(=O)N[C@H](C(=O)N[C@H](C(=O)O)c4cc(O)cc(O)c4-c4cc3ccc4O)[C@H](O)c3ccc(c(Cl)c3)Oc3cc2cc(c3O[C@@H]2O[C@H](CO)[C@@H](O)[C@H](O)[C@H]2O[C@H]2C[C@](C)(N)[C@H](O)[C@H](C)O2)Oc2ccc(cc2Cl)[C@H]1O	Enterococcus faecalis		ATCC 51575		> 50 µg/mL
CC1CCC(C(C)C)C(OC(=O)Cn2c(COc3ccccc3)[n+](C)c3ccccc32)C1 (centres unmarked)	Mycobacteroides abscessus	microbial growth			26.7 µM
CN[C@H](CC(C)C)C(=O)N[C@H]1C(=O)N[C@@H](CC(N)=O)C(=O)N[C@H]2C(=O)N[C@H]3C(=O)N[C@H](C(=O)N[C@H](C(=O)O)c4cc(O)cc(O)c4-c4cc3ccc4O)[C@H](O)c3ccc(c(Cl)c3)Oc3cc2cc(c3O[C@@H]2O[C@H](CO)[C@@H](O)[C@H](O)[C@H]2O[C@H]2C[C@](C)(N)[C@H](O)[C@H](C)O2)Oc2ccc(cc2Cl)[C@H]1O	Enterococcus gallinarum		vancomycin-intermediate ATCC 49608	20 h	8 to 16 µg/mL
O=C(/C=C/c1ccccc1)N/N=C/c1ccccc1Cl	Aspergillus niger	tube dilution		7 days, 25 °C	< 25.1 µM
CC[C@H](C)[C@H](NC(=O)[C@@H]1CCCN1C(=O)[C@H](CCCNC(=N)N)NC(=O)[C@@H]1CCCN1C(=O)[C@@H]1CCCN1C(=O)[C@@H](NC(=O)[C@@H]1CCCN1C(=O)[C@H](CCCNC(=N)N)NC(=O)[C@@H]1CCCN1C(=O)[C@H](CC(C)C)NC(=O)[C@H](Cc1ccc(O)cc1)NC(=O)[C@H](CO)NC(=O)CNC(=O)[C@H](CCCCN)NC(=O)[C@H](CC(=O)O)NC(=O)[C@@H](N)C(C)C)[C@@H](C)O)C(=O)N[C@@H](Cc1ccc(O)cc1)C(=O)N[C@@H](CC(N)=O)C(=O)N[C@@H](CCCNC(=N)N)C(=O)N[C@@H](CC(N)=O)C(=O)O	Salmonella enterica		serovar Tennessee	18 h, 37 °C, 12.5% Mueller-Hinton broth	> 0.6 µM

Substance	organism	assay	test system	conditions	MIC
zinc borate	Serratia marcescens	broth macrodilution	clinical isolate	9%, with: boric acid	4.5%
Cc1ccc(OCc2n(CC(=O)OC3CC(C)CCC3C(C)C)c3ccccc3[n+]2C)cc1 (centres unmarked)	Mycolicibacterium smegmatis	microbial growth			5 µM
CC[C@H](C)[C@H](NC(=O)[C@H](CCCNC(=N)N)NC(=O)[C@H](CCCCN)NC(=O)[C@H](CC(C)C)NC(=O)[C@H](CC(C)C)NC(=O)CN)C(=O)N[C@@H](CCCCN)C(=O)N[C@H](C(=O)N[C@@H](CC(C)C)C(=O)N[C@@H](CC(C)C)C(N)=O)[C@@H](C)O	Staphylococcus epidermidis		ATCC 12228	18 to 20 h	8 µM
pneumocandin H	Candida parapsilosis	broth microdilution, resazurin	ATCC 90018	24 h, 35 °C	25.6 µg/mL
CC[C@H](C)[C@H](NC(=O)[C@H](CCCCN)NC(=O)CNC(=O)[C@H](CC(C)C)NC(=O)[C@H](Cc1ccccc1)NC(=O)[C@H](CCC(N)=O)NC(=O)[C@H](Cc1ccccc1)NC(=O)[C@@H](N)C(C)C)C(=O)N[C@H](C(=O)N[C@@H](Cc1c[nH]cn1)C(=O)N[C@@H](Cc1c[nH]cn1)C(=O)N[C@H](C(=O)NCC(=O)N[C@@H](CC(N)=O)C(=O)N[C@@H](Cc1ccccc1)C(=O)N[C@H](C(=O)N[C@@H](Cc1c[nH]cn1)C(=O)NCC(=O)N[C@@H](Cc1ccccc1)C(=O)N[C@@H](CO)C(=O)N[C@@H](Cc1c[nH]cn1)C(=O)N[C@H](C(=O)N[C@@H](Cc1ccccc1)C(N)=O)C(C)C)C(C)C)C(C)C)[C@@H](C)CC	Enterobacter cloacae	broth microdilution	AR 0136	pH 7.4	> 128 µM
CCCCCCCCCCCCCC(=O)N/N=C/c1ccccc1	Aspergillus niger	microbial growth, broth dilution		7 days	57.5 µM
C[C@@H](O)[C@H]1C(=O)N2C(C(=O)O)=C(SCCN=CN)C[C@H]12	Acinetobacter baumannii	broth microdilution	ATCC 17978 pET-RA-KmR no beta-lactamase	without inhibitor	0.5 µg/mL
Cc1ccc(C(=O)N/N=C/c2ccccc2)cc1	Aspergillus niger	microbial growth, broth dilution		7 days	13.2 µM
N=C(N)NCCC[C@H](NC(=O)[C@H](Cc1c[nH]cn1)NC(=O)[C@@H]1CCCN1C(=O)[C@H](CS)NC(=O)[C@@H]1CCCN1)C(=O)N[C@@H](CS)C(=O)O	Streptococcus pyogenes	broth microdilution	MTCC 442	37 °C	60 µg/mL
O=C(N/N=C/c1ccccc1)c1cc([N+](=O)[O-])cc([N+](=O)[O-])c1	Aspergillus niger	tube dilution		7 days, 25 °C	< 25.1 µM
COc1ccc(OCc2n(CC(=O)OC3CC(C)CCC3C(C)C)c3ccccc3[n+]2C)cc1 (centres unmarked)	Mycobacteroides abscessus	microbial growth			26 µM
CC(C)C[C@H](NC(=O)[C@H](CCCNC(=N)N)NC(=O)[C@H](C)NC(=O)[C@@H](NC(=O)[C@H](CC(C)C)NC(=O)[C@H](Cc1c[nH]cn1)NC(=O)[C@H](CC(C)C)NC(=O)[C@@H](NC(=O)[C@@H](N)CO)[C@@H](C)O)C(C)C)C(=O)N[C@@H](CCCNC(=N)N)C(=O)NCC(=O)NCC(=O)O	Mycolicibacterium smegmatis		mc2 155	37 °C, ≥90% viability decrease	100 µM
STFFRLFNRSFTQGRRRRSVQWCA	Streptococcus mutans	broth microdilution	peptide, GS-5	24 h, 37 °C, planktonic, anaerobic	13.3 ± 4 µg/mL
CC[C@H](C)C[C@H](C)CCCCCCCCC(=O)N[C@H]1C[C@@H](O)[C@@H](NCCN)NC(=O)[C@@H]2[C@@H](O)CCN2C(=O)[C@H]([C@H](O)CCN)NC(=O)[C@H]([C@H](O)[C@@H](O)c2ccc(O)cc2)NC(=O)[C@@H]2C[C@@H](O)CN2C(=O)[C@H]([C@@H](C)O)NC1=O	Candida parapsilosis		ATCC 90018, RPMI 1640, 0.165 M MOPS	24 h, 35 °C, 100% inhibition endpoint	1.6 µg/mL
TFFRLFNRGRRRRSVQWCA	Streptococcus mutans	broth microdilution	peptide, UA159	planktonic, anaerobic	10.7 ± 4 µg/mL
CN[C@@H]1[C@@H](O)[C@@H](O[C@@H]2[C@@H](O)[C@H](O[C@H]3OC(CNCCO)=CC[C@H]3N)[C@@H](N)C[C@H]2NC(=O)[C@@H](O)CCN)OC[C@]1(C)O	Mycolicibacterium smegmatis		wild type		0.03 µg/mL
CN[C@@H]1[C@H](O)[C@H](NC)[C@H]2O[C@@]3(O)C(=O)C[C@@H](C)O[C@H]3O[C@@H]2[C@H]1O	Mycobacteroides abscessus		ATCC 19977 ∆whiB7	120 h	32 µg/mL
CC[C@H](C)[C@H](NC(=O)[C@@H]1CCCN1C(=O)[C@H](CCCCN)NC(=O)[C@@H]1CCCN1C(=O)[C@@H]1CCCN1C(=O)[C@@H](NC(=O)[C@@H]1CCCN1C(=O)[C@H](CCCNC(=N)N)NC(=O)[C@@H]1CCCN1C(=O)[C@H](CCCCN)NC(=O)[C@H](Cc1ccc(O)cc1)NC(=O)[C@H](CO)NC(=O)CNC(=O)[C@H](CCCCN)NC(=O)[C@H](CC(=O)O)NC(=O)[C@@H](N)C(C)C)[C@@H](C)O)C(=O)N[C@@H](Cc1ccc(O)cc1)C(=O)N[C@@H](CC(N)=O)C(=O)N[C@@H](CCCNC(=N)N)C(=O)N[C@@H](CC(N)=O)C(=O)O	Salmonella enterica		serovar Infantis #129 B	18 h, 37 °C, 12.5% Mueller-Hinton broth	0.3 ± 0.07 µM
LSTFFRLFNRSFTQGRRRRSVQWCA	Streptococcus mutans	broth microdilution	peptide, UA159	planktonic, anaerobic	10.7 ± 4 µg/mL
